Measurements from different studies.
Numbered parts are unrelated; each lists some results of a single study. Substitutions count along the parent as printed.

Set 1 — target: CCNB2, cyclin fold, Cln2 fusion (human); method: yeast growth competition, sequencing; sample: yeast; setting: weak parent motif; baseline: not given; direction: higher = stronger binding
Starting sequence: CDC25A docking peptide (human); PPHRRRLLFACSP; partner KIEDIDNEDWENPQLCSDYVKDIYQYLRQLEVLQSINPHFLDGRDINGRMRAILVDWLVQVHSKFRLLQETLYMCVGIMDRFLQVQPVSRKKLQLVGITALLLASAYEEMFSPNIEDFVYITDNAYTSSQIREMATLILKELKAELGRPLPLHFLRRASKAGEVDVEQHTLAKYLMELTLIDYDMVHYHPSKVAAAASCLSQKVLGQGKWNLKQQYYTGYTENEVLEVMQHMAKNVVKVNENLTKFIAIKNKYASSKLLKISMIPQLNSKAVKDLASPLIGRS
`PPHRRALLFACSP [R6A]` — result for “normalised enrichment score”: 0.186.
`PPHRRRLLFACHP [S12H]` — result for “normalised enrichment score”: 0.677.
`PPHRRRLLTACSP [F9T]` — result for “normalised enrichment score”: 0.681.

Set 2 — method: RNA Bind-n-Seq; molecule type: RNA; sample: in vitro; tested at: 365 nM; baseline: no-protein control; direction: higher = stronger binding
Target: RNA binding protein fox-1 homolog 2, RRM domain, GST-SBP tag (RBFOX2, Homo sapiens, UniProt O43251-10, residues 100-194)
Setting: natural RNA segment, single round, ends assumed
Construct (chain): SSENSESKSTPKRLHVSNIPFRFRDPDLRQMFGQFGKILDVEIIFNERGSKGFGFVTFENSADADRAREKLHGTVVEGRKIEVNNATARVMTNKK
`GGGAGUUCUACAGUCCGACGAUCCCUUGCUGAGUGAAACCAACUCAUUUCUGAUUGGGCACAAAGAACUGCAUUCUUUGGACGUGUGAAUCCAUGUUCCUCUUCCUCUGGCCACUGAACACCUCCACCAGCUCUGGAAUUCUCGGGUGCCAA` — result for “RBNS enrichment (R)”: 0.405.
Under “RBNS enrichment (R)”, `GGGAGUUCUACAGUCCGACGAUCGGCCGGCACCUCUGCCCAUCUCCACUCAGGAGUGGUGACUGAGGUUCAUUUAGAAGGGAGCAAAGAGCGUUUUAAACUUUGAAAAGACCACAAAACAAACUGACCCUCCUUGGAAUUCUCGGGUGCCAA` is recorded as 0.225.
`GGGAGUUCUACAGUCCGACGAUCCACUUGGGACAGACUAUUUGUAGUGUCUAUAGGACAUGAAGCGUGCAGCUUGGAGAGCAAAGGCACUUCCUCCCACGACCUUACUGCAGUAACCAUACCGAUCAAAUUCCUGGAAUUCUCGGGUGCCAA`: “RBNS enrichment (R)” 0.556.
Under “RBNS enrichment (R)”, `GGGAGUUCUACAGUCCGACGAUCGACAGUCCCUGGAUCCUACACAGCUAAUCCAAGCCAAUAAAGGGCUCUCACAAGUGGUUGUUCCUCAGUUCUGUUGUGCAGUGACUCUUGAGAUGCACCAUUCUCUACUGUGGAAUUCUCGGGUGCCAA` is recorded as 0.414.
For `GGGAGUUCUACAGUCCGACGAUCCUCCCUUAAGAGUAUCACUGUUCUGAAGCUAAAAUGCUUCAGUCUCAAAUUUAGGGGCAAAGUGGAGACUGGAAGAAUUCUCCUUUCAGAAGAACCACGAGGCUCUGGCUUGGAAUUCUCGGGUGCCAA`, “RBNS enrichment (R)” read 0.241.
For `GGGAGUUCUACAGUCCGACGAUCUCUGCAGGACCUUCUCUGUCCAGCGCCCCCUUUCUGUUGUGCGAUUAGUUGUAGCUGCCAUGCUCAGAAUUGCCUUUUGAGAGCUGAAGCAAGGUGCUUACUGUCACCUGUGGAAUUCUCGGGUGCCAA`, “RBNS enrichment (R)” read 0.333.
Under “RBNS enrichment (R)”, `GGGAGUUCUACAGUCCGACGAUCCUGUAGAGGUAUGAAAAUACAGCCCCAAAGGGGGAAUUUGUCAUGGGGAAGGGCCAGCCACUGACUACUUGAUCUUGGAGACCACAUUUAGAUGGAAAUGAGAGGACCUCUGGAAUUCUCGGGUGCCAA` is recorded as 0.817.
Under “RBNS enrichment (R)”, `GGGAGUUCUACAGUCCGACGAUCCAUGUUAGCCAGGAUGGUCUCGAUCUCCUGACCUCGUGAUCCACUCACCUCAGCCUCCCAAAAUCCUGGGGUUACAGAUGUGAGCUACCACUCACGGCCCAAAUCUUCUUUGGAAUUCUCGGGUGCCAA` is recorded as 0.249.

Set 3 — method: protein binding microarray; molecule type: double-stranded DNA, one strand shown; sample: in vitro; tested at: not given; baseline: not given; direction: higher = stronger binding
Target: Histone acetyltransferase KAT6A, winged helix 2, GST fusion (KAT6A, Homo sapiens, UniProt Q92794, residues 85-181)
Setting: 8-mer, flanks averaged, mean of 2 arrays, mostly near background
Residues (chain): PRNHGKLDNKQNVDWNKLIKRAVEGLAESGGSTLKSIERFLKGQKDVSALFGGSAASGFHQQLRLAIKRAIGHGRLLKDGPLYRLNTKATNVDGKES
With `ACGCATTC` the E-score was -0.0868.
With `CATCTCTC` the E-score was -0.111.
For `AACAATCC`, the E-score was 0.0252.
`ACACAGGG` has an E-score of 0.0232.
`CCTTGAAC` has an E-score of -0.0811.
`ATCCCTGC` has an E-score of -0.0321.

Other studies, line by line
For `PhoQ, residues 284 288 289 292 302 303 SVTLVV`, the fold induction was 3.39 (PhoP, residues 12 14 15 18 19 IFFTR (Escherichia coli, UniProt P23836); Sort-seq, refers to: YFP reporter; E. coli; PhoQ-PhoP variant library, together with: 10 µM Mg2+; baseline: high Mg2+ state, higher = stronger signaling).
